Experimental data from different studies.
Each numbered part is a random draw from the data of one study; scales do not carry over between parts.

Series 1 — technique: RNA Bind-n-Seq; molecule type: RNA; medium: in vitro; concentration: not given; baseline: input RNA pool; reading: higher = stronger binding
Target: RING finger protein unkempt homolog, zinc fingers 1-6, GST-SBP tag (UNK, Homo sapiens, UniProt Q9C0B0, residues 30-357)
UniProt Q9C0B0, sequence (30-357, looked up): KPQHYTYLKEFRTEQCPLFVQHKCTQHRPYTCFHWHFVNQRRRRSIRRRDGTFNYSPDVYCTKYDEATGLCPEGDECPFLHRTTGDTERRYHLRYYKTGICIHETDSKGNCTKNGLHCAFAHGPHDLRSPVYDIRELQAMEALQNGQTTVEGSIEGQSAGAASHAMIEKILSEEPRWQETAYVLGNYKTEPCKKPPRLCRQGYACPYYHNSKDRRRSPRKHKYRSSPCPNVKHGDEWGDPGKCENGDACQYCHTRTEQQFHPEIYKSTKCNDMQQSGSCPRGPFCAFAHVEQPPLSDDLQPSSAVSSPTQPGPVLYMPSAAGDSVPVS
Setting: RNA with constant flanks, human and mouse sites, ends assumed
With `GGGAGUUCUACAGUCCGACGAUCCUCCCCCAAGCAGAUCCUGGGAUGGGUGAGAGAAAAUGGGGAAAGAGGGUGUCCCUCCCAUCCCCCUUCUGCCCAGCUCUCAUCAAUUGUCAGACCCACCAGAGCUGAGGGCAGAGGGACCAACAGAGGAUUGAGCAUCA` the bound/input enrichment was 0.126 ratio.
The bound/input enrichment of `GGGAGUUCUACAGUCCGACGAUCGCAGCAAGAUCAUGUGCAUAUCAUCCCAUUGUAAAGCAACUUCAAAAAUAUGGGAACAGUUAGUUAUUUUUACACAGUUCUUUUUGUUUGUGUGUGUGUGUGUGUGCUGUCGCUUGUCGACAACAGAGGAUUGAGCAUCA` is reported as 1.66 ratio.
For `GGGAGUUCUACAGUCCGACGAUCGGUCCACAAGUUCAUCGUCAACACCCUGAAAGACGGCAGGAAAGUAGUUGUUUUGAUGGACUUGGAAGUUAUGAAAUCUGCUGAAGACGUUGGAUUAAAGAUUGGGAAUCCAGUGCCCUACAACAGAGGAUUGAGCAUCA`, the bound/input enrichment was 0.282 ratio.
With `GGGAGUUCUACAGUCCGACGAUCUUUUCUUUUGGAGGUGGAUUAUUUGAUGACAUGUUUGAAGAUAUGGAGAAAAUGUUUUCUUUUAGUGGUUUUGACUCUACCAAUCAGCAUACAGUACAGACUGAAAAUAGAUUUCAUGGACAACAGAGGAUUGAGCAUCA` the bound/input enrichment was 0.332 ratio.
`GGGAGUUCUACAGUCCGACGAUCCCUCCCUUUGCUACUGGACUGCCUCACUAUGGACACAUACUUGCUGGGACAAUCAAAGAUAUCGUUACGAGAUACGCUCACCAGAGCGGGUUUCACGUUGACAGAAGAUUCGGGUGGGACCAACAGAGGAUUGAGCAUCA` gave a bound/input enrichment of 0.184 ratio.
With `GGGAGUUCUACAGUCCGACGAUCUGUGGGGCCUGGCUUUGGGCAGCUGCUCAUCAUUGAGGAAGUGGCAGGACUUGGAGGAAGUUAUGUGUGAAUGUUGUCAAGUCCUGAAGUCCUAUGAUGCACUGUGGCCCUAGAAAACGACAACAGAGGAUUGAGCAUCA` the bound/input enrichment was 0.108 ratio.
`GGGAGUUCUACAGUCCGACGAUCUCCUUCGCUCCUGUCAUCACUGGCCUGCAAAACCUGGUUGGCACAAAAAGAGUUUCAGAUCCUUCCCAGAAAAAUUCAGGCACAGAUAUGGAACCAAGGACUGUUGAGAUAAACAGGGAGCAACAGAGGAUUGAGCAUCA` has a bound/input enrichment of 0.153 ratio.
The bound/input enrichment of `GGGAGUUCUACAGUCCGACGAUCUCUAUUGCUACAAGAGAGGGAGUUGCUGUUCUGUAUUCUAAACUGGUUAGCAAUAAGGAAGUAGUACCUUUGCCCCAACAAGUUUUAUGCCUCAAAGGACCACAGUUGCCAGACUUUGAACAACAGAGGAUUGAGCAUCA` is reported as 0.154 ratio.

Series 2 — technique: protein-binding microarray; molecule type: double-stranded DNA, one strand shown; medium: in vitro; concentration: 2540 nM top; setting: 60-bp whole probe; with: salmon DNA 0.4 mg/ml; baseline: random background probes; reading: higher = stronger binding; constant ends, left off below: GCCTAGCAC … GTCTTGATTCGCTTGACGCTGCTG
Target: Interferon regulatory factor 3, full length, phosphomimetic (IRF3, Homo sapiens, UniProt Q14653, residues 1-427, S386D/S396D/S398D/S402D/T404D/S405D)
Construct (chain): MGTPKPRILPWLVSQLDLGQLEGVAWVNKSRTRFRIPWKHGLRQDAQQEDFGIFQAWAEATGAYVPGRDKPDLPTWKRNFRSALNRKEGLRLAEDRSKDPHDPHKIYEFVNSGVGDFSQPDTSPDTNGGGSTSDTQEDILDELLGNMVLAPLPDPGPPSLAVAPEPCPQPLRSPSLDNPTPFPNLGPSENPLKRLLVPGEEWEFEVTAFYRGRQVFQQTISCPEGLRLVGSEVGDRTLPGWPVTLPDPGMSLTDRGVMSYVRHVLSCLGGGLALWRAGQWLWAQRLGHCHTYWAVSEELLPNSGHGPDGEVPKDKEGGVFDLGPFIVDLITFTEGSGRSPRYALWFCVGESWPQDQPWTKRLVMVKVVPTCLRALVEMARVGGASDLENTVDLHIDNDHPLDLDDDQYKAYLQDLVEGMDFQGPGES
`TTAGGTTTCGGGACTGCGTTAGTGCTA`: “fitted relative affinity” 4.28 z-score.
`TTCGGTATCGGACTGGGTTAGTGCTAG` — result for “fitted relative affinity”: 2.1 z-score.
`TTAGGTTTCGGGTTTCGCTTAGTGCTA` — result for “fitted relative affinity”: 5.3 z-score.
`TTAGATTTCGGATATCGATTAGTGCTA`: “fitted relative affinity” 2.76 z-score.
`GACGGACTGCTTCTACTGACGTGCTAG` — result for “fitted relative affinity”: -0.275 z-score.
`TTAGGTATCGTTATCCTTTAGTGCTAG`: “fitted relative affinity” 3.43 z-score.
For `GACGAACTGAGTCTCTAGACGTGCTAG`, “fitted relative affinity” read -0.255 z-score.
Under “fitted relative affinity”, `GACGGTCTCCTACTTCTGACGTGCTAG` is recorded as 2 z-score.
`TTTGGTTTCGGGTATCGGTTAGTGCTA` — result for “fitted relative affinity”: 5.02 z-score.
For `TTATGTTTCGGTCTCGGTTAGTGCTAG`, “fitted relative affinity” read 7.55 z-score.
Under “fitted relative affinity”, `TTAGGTATCGACTATCGGTAAGTGCTA` is recorded as 0.513 z-score.
`TTAGATAGCGGGTATCGATTAGTGCTA`: “fitted relative affinity” -0.139 z-score.
`TCAGCTATCACTATTCTACTGTGCTAG`: “fitted relative affinity” 0.859 z-score.
Under “fitted relative affinity”, `TCAATTTCCACTTTGACACTGTGCTAG` is recorded as 3.16 z-score.
For `TTAGAACTGAGTATCGATTCGTGCTAG`, “fitted relative affinity” read 0.708 z-score.
Under “fitted relative affinity”, `GACGATCTCAGTCTCGGGACGTGCTAG` is recorded as 0.662 z-score.
Under “fitted relative affinity”, `GACGGACTGGGGTATCGCGACGTGCTA` is recorded as -0.877 z-score.
`GACGGTCTCCGTTTCCTGACGTGCTAG` — result for “fitted relative affinity”: 3.42 z-score.
`TTAGGTTGCGGACTGGGTTAGTGCTAG` — result for “fitted relative affinity”: 1.21 z-score.
`TTAGATATCGGGTATCGATTGGTGCTA`: “fitted relative affinity” 0.116 z-score.

Series 3 — technique: RNA Bind-n-Seq; molecule type: RNA; medium: in vitro; concentration: 365 nM; baseline: no-protein control; reading: higher = stronger binding
Target: RNA binding protein fox-1 homolog 2, RRM domain, GST-SBP tag (RBFOX2, Homo sapiens, UniProt O43251-10, residues 100-194)
Setting: natural RNA segment, single round, ends assumed
Construct (chain): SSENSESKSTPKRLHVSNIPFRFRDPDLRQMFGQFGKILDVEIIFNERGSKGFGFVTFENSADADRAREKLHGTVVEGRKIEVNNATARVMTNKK
For `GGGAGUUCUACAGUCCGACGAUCUCACUCUUCACUUGAGUUGGCUGUGUUCGGGGGAGCAGAGAGAGCCAGACAGCCCCAAGCUUCUGAGUCUAGAUACAGAAGCCCAUGUCUUCUGCUGUUCUUCACUUCUGUGGAAUUCUCGGGUGCCAA`, “RBNS enrichment (R)” read 0.311.
`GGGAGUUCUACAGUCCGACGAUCGAUGUGACAUUUGGGAUUCCCCAUCACUUGUCAUGCCCUCAGCACCCAGCUUGUGCCAUUGGGCAUUGAUGGCAUUGAACUAGAGCGAGUGCCUGCCUCGGCUGUGGCACUGGAAUUCUCGGGUGCCAA`: “RBNS enrichment (R)” 0.426.
Under “RBNS enrichment (R)”, `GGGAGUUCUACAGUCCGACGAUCUCUCCAGUGCAUUAAAUAACCUUCAUCAAGAAAUAGGUUAUAGGUAAAAUCUCUGAAGGAUCAUCUAUGUAUUCAAGUAAUUAUUUUUUAGAUAAUAACUGUCUUCUGGAUGGAAUUCUCGGGUGCCAA` is recorded as 0.35.
`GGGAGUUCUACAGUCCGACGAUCGUUGAGAAUUGUAUUCAGUGAUUGUUUCUGCACACUUUUCAAAUAAAAAAUGAAUUUUUAUCAAUUAUUUUCUGUACUCAAAGCAACUUUAUUUCUGUGCUGAAGUUGAGUGGAAUUCUCGGGUGCCAA`: “RBNS enrichment (R)” 1.61.
`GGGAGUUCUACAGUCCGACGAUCCAACCGACAGCAAACAGCUUUCUCCGGCCUCAGGGCAGAAAAAGGGAAUGGCAGGGAGUAAGAGGCGCUGGGCUCGGAGCCUGUUUCCAAGAAGGAAUUGGUUGUCAUCUUGGAAUUCUCGGGUGCCAA`: “RBNS enrichment (R)” 0.368.
For `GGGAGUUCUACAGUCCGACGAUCUUCUAUAUAUUCUAUAUAAAUAUAUAUUGUGGAUGGCCGCCAUGGCGAGUGGUGGCUGGGGCUUUUCUAGGGGCGGGGGACGGGUGGCCCGGCCCCCUCAUCACAAUCAGUGGAAUUCUCGGGUGCCAA`, “RBNS enrichment (R)” read 0.485.

Series 4 — technique: RNA Bind-n-Seq; molecule type: RNA; medium: in vitro; concentration: 1 µM; setting: whole 134-nt RNA, ends assumed; with: 150 mM KCl; baseline: input library; reading: higher = stronger binding
Target: Ras GTPase-activating protein-binding protein 1, C-terminal RGG region (G3BP1, Homo sapiens, UniProt Q13283)
UniProt Q13283, sequence (whole entry, looked up): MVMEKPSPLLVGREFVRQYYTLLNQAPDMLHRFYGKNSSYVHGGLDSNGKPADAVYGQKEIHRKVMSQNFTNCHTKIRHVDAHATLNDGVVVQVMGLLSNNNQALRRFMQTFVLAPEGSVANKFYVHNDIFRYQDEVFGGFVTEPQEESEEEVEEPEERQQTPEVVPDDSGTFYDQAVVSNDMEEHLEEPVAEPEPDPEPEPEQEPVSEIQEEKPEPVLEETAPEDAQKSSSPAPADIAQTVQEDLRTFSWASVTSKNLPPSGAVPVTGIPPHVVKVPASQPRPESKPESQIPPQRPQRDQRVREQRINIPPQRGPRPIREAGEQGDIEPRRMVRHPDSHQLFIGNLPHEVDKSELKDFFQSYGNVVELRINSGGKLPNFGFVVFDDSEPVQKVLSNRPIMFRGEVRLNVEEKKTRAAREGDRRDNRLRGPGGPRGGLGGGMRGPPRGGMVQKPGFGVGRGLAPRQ
With `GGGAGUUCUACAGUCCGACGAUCUAAUUUAGAUCUUAAAGAAAAAGUGGAGCCUGAGGUUCUCAGCACUGAUACCCAAACUUCCCCAGAGCCAGGCACAAGGAUGAACAUUCUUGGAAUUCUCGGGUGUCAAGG` the log2 enrichment was -1.17.
`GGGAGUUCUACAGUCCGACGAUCUGGGAGGUGGAUUUUGUUUAUUUUUUUAGCUCAUUCCCAGGGGUGGGAAUUUUUUUUUAAUAUGUGUCAUGAAUAAAGUUGUUUUUGAAAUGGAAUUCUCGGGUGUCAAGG` has a log2 enrichment of 3.47.
The log2 enrichment of `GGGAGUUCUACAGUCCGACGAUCAAUAACUGACGCUGCAUUUAAUUUUUUUGCCAGUUUAAAAUGUUUGUGUGUUUUUAUAGAUGAUUUUAACUGGUACAUAUUUUGAGUUAAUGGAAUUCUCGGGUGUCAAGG` is reported as -2.15.
With `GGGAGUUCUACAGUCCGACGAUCAAGUCCUGUGCUACACAUCGUAUGUACCGAAUCGGGCCCCGGCCCCGGGCCCCGGGAAAGUAUUAUGUUACGCCGUUCGGAUCUGCACUUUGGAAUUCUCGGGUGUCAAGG` the log2 enrichment was -2.18.
For `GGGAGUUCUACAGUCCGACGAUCUAGAGACUUCAGAUGGAUUUUAAAAUUGAACACACUUGGGAUGGUUUUCCAGUGAAGCAUGAGCCCGUAUUUAUCAGGCUGAAUCCAGGUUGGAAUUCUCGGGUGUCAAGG`, the log2 enrichment was -1.8.
For `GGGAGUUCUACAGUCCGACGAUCUAACUUUAGAGGAGGAUCUGAUGGAUAUGGCAGUGGACGUGGAUUUGGUGAUGGCUAUAAUGGGUAUGGAGGAGGACCUGGAGGUGGCAAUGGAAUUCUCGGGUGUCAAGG`, the log2 enrichment was -1.15.
`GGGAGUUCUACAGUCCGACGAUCCACAGACAACACGCACCCACACAGACACAGAGGGAAGGGGUUGGGAUGGGGACAGGGUGCACAGCAGGGCGGGGUAUGACCCCAGCCCCUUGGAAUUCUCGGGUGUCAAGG` has a log2 enrichment of -0.553.
With `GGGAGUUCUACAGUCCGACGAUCCCUCAAGUCCUGUGCUACACAUCGUAUGUACCGAAUCGGGGUGGUGGGUGGGAAAGUAUUAUGUUACGCCGUUCGGAUCUGCACUUCCAGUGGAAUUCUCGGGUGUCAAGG` the log2 enrichment was 0.928.
`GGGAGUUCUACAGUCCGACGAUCAGUCCUGUGCUACACAUCGUAUGUACCGAAUCGGGGAAAAGGGGAAAAGGAAAAGGGGAAAGUAUUAUGUUACGCCGUUCGGAUCUGCACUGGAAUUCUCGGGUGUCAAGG` gave a log2 enrichment of -0.337.
`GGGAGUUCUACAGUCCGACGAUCACCAUGCAGGUGGGCAUCUUUGGGAAGUGGGGCAAGGGGGGGAUAGGGAGGGGGGUAACACUUUGGGAACAGGUGGUCCCAGGUCGUUACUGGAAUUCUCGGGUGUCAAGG` gave a log2 enrichment of 2.15.

For quick reference, copied from above (series 2):
`GACGGTCTCCGTTTCCTGACGTGCTAG` — result for “fitted relative affinity”: 3.42 z-score.
`TTAGGTTGCGGACTGGGTTAGTGCTAG` — result for “fitted relative affinity”: 1.21 z-score.
`TTAGATATCGGGTATCGATTGGTGCTA`: “fitted relative affinity” 0.116 z-score.
